Results gathered from unrelated publications.
Lines come from different studies, so protocols differ. pKd: −log10 of the molar value.
T1: DNA aptamer; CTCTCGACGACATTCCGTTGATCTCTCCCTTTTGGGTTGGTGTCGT
T2: DNA aptamer C50A; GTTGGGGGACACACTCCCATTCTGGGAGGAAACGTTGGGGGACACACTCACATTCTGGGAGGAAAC
T3: DNA aptamer; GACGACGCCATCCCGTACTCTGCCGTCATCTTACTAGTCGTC
T4: DNA aptamer; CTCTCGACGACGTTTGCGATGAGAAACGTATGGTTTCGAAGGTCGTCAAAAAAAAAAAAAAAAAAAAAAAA
T5: DNA aptamer; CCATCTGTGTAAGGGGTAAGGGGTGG
T6: DNA aptamer; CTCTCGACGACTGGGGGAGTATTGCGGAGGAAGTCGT
T7: DNA aptamer, abasic dSpacer opposite cytosine; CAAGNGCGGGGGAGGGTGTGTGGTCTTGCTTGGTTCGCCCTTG
T8: DNA aptamer; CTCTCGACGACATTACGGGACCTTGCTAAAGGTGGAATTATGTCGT
T9: DNA aptamer; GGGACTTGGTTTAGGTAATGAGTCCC
T10: DNA aptamer; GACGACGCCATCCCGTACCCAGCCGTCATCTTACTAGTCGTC
T11: DNA aptamer; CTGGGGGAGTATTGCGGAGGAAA

| SMILES | target | test | test system | setting | quantity | result |
| --- | --- | --- | --- | --- | --- | --- |
| CN(C)[C@@H]1C(=O)C(C(N)=O)=C(O)[C@@]2(O)C(=O)C3=C(O)c4c(O)cccc4[C@@](C)(O)[C@H]3[C@H](O)[C@@H]12 | T1, DNA aptamer | probe displacement, competitor, fluorescence | – | – | binding | binds |
| Nc1ncnc2c1ncn2[C@@H]1O[C@H](CO)[C@@H](O)[C@H]1O | T2, DNA aptamer C50A | native PAGE mobility shift | – | with: Mg2+ 10 mM | binding | binds |
| CC1(C)S[C@@H]2[C@H](NC(=O)[C@H](N)c3ccccc3)C(=O)N2[C@H]1C(=O)O | T3, DNA aptamer | ITC | – | – | pKd | 5.40 |
| Nc1ncnc2c1ncn2[C@@H]1O[C@H](COP(=O)(O)OP(=O)(O)OP(=O)(O)O)[C@@H](O)[C@H]1O | T4, DNA aptamer | probe displacement, competitor, SPR | – | 25 °C | binding | binds |
| COc1cccc2c1C(=O)c1c(O)c3c(c(O)c1C2=O)C[C@@](O)(C(=O)CO)C[C@@H]3O[C@H]1C[C@H](N)[C@H](O)[C@H](C)O1 | T5, DNA aptamer | square-wave voltammetry | whole bovine blood | 37 °C, apparent, Hill fit | pKd | 4.66 |
| Nc1ncnc2c1ncn2[C@@H]1O[C@H](CO)[C@@H](O)[C@H]1O | T6, DNA aptamer | competition, fluorescence strand displacement | – | with: adenosine 100 µM | binding | binds |
| Cc1nc2nc(N)ccc2c(C)c1C | T7, DNA aptamer, abasic dSpacer opposite cytosine | fluorescence quenching | – | – | binding | binds |
| O=c1[nH]c(=O)c2[nH]c(=O)[nH]c2[nH]1 | T8, DNA aptamer | probe displacement, competitor, fluorescence | – | – | binding | binds |
| Nc1ncnc2c1ncn2[C@@H]1O[C@H](COP(=O)(O)OP(=O)(O)OP(=O)(O)O)[C@@H](O)[C@H]1O | T9, DNA aptamer | amperometry | – | little response to ATP | binding | no binding |
| CC1(C)S[C@@H]2[C@H](NC(=O)Cc3ccccc3)C(=O)N2[C@H]1C(=O)O | T10, DNA aptamer | competition, fluorescence displacement | – | with: ThT 10 µM | binding | no binding |
| Nc1ncnc2c1ncn2[C@@H]1O[C@H](COP(=O)(O)OP(=O)(O)OP(=O)(O)O)[C@@H](O)[C@H]1O | T11, DNA aptamer | square wave voltammetry | – | apparent, one-site Langmuir fit, E-AB sensor | pKd | 4.21 |

For quick reference, copied from above:
| SMILES | target | test | test system | setting | quantity | result |
| --- | --- | --- | --- | --- | --- | --- |
| Nc1ncnc2c1ncn2[C@@H]1O[C@H](COP(=O)(O)OP(=O)(O)OP(=O)(O)O)[C@@H](O)[C@H]1O | T4, DNA aptamer | probe displacement, competitor, SPR | – | 25 °C | binding | binds |
